Measured values gathered from unrelated publications.
Every numbered part comes from another study and shows a few of its results, in no order.

Set 1 — method: RNA Bind-n-Seq; form: RNA; sample: in vitro; concentration: 365 nM; reference: no-protein control; direction: higher = stronger binding
Target: RNA binding protein fox-1 homolog 2, RRM domain, GST-SBP tag (RBFOX2, Homo sapiens, UniProt O43251-10, residues 100-194)
Notes: natural RNA segment, single round, ends assumed
Constant ends, left off below: GGGAGUUCUACAGUCCGACGAUC … UGGAAUUCUCGGGUGCCAA
Construct (chain): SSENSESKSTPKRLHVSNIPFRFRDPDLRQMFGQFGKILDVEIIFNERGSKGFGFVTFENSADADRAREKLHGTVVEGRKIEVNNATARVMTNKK
| Sequence | RBNS enrichment (R) |
| --- | --- |
| ACCAGCCAGGUCUUAUGUUCCCAGGCCCUGUCUUCUGGAAAGCAUUACUGGGAAGUGGACACUAGGAAUUGCAGCCACUGGGCAGUUGGGGUGGCUUCCUGGGAGAUGAG | 1.07 |
| AGGUAUAAGUUGUUUCAAGAGAGAAGAUUCACCAAAACUUGGAUCUCACCCCAUUCCAAACCCAACCCCAACCCUACUUUCCCCAUGAGACUCCCUGCCUGCUGCCAGUA | 1.17 |
| CCAGCCUUCCCACAUCUUCCCAGGCCAAGAUGCAGGGGGCAGGCUGAAGAGAAAUUUGUGUGUCCUUGUUUGUUGCCUGAUCUUAGUUUCAUGGAAGAAAAUGGAAUCUA | 1.12 |
| AGGUUUAAUAUGCAUUCAGAUUACUUUUACUAAAUAGGACACCAUAAAGCUUUUGUUAUAUAUUAAAUGUAAACUGAAAGGAAUGUAAACAUAUGUAUUGUUAAUUAUAA | 1.04 |
| CUGAAAGAAUUGUUAAUGAAACCUCAUUCUUUAUGUUUAUCUCAGUGUCUCUUUACAUGGAUAUUUUGCCUGUCAAAUGAAUUGAUAGCUAAUAAAAGUCAACAAGCCAU | 0.423 |
| GACGUGCUAGCCAUUUCCAGUGUCCCAACUACUGUCAUCGUGAGGUUUUCAUCGGCUGUGCCAUUUCCCAACGUCUUUUGGGAUUUACAUCUGUCUGUGUUAAAAUAAUC | 0.312 |
| AUUUUACUCUUCAUUUCAGGGUUUUCUUUUUUUUUUUACCUUCAAAGGUAGACAUUUUGGGAAUCAUAACUGUAUUACUAAACGUGUUUAAUCAAAAUUCAUAGUUGGAU | 0.215 |
| UCAGCCAGUGAGAUGGCCAGCCCCCUCCUGCUGCCACACCACGUAAGUUCUCAGUCCCAACCUCGGGGAUGUGUGCAGACAGGGCUGUGUGACCACAGCUGGGCCCUGUU | 0.355 |
| CUCGCAUGACUACGGGGCCCCCCAGGAGGCGACUCUCGGGGCCAACAAGGUGAUCGAAGGCCUGGACACGGGCCUGCAGGGCAUGUGUGUGGGAGAGAGGCGGCAGCUCA | 1.78 |
| CCAGCUUGGAGCUUUAGUUUUUUUCUUUGUUUUUCUUGCUGCCCUCCUCCCUGCCCCCCUUUUCUUACAAGGAAAGAAAAGUUGGAUCGUCAGUGGCCAGCCUCCCCUCA | 0.995 |
| UUUUUUAAUUGUGAUCUAUUUUGGCUUAAUGUGAUUACCGCUGUAUUCCAAAAAAAAAAAAAAAACAGGUUCCUGUUCACAAUACCUCAUGUAUCAUCUAGCCAUGCACG | 0.665 |
| UCCUCUCCUGUCACCCUAAGAGCCACUGAGUUGUGUAGGGAUGAAGACUAUUGAAGACUCCAUUGCCAAACCAUGGCCUUUCCUCAGUGUUGUAAGGCCUAUGCCAAGGA | 0.22 |

Set 2 — method: universal PBM; form: double-stranded DNA, one strand shown; sample: in vitro; concentration: not given; direction: higher = stronger binding
Target: Sal-like protein 4, full length isoform B (SALL4, Homo sapiens, UniProt Q9UJQ4-2, residues 1-616)
Notes: 8-mer, flanks averaged, mean of replicates
Residues (chain): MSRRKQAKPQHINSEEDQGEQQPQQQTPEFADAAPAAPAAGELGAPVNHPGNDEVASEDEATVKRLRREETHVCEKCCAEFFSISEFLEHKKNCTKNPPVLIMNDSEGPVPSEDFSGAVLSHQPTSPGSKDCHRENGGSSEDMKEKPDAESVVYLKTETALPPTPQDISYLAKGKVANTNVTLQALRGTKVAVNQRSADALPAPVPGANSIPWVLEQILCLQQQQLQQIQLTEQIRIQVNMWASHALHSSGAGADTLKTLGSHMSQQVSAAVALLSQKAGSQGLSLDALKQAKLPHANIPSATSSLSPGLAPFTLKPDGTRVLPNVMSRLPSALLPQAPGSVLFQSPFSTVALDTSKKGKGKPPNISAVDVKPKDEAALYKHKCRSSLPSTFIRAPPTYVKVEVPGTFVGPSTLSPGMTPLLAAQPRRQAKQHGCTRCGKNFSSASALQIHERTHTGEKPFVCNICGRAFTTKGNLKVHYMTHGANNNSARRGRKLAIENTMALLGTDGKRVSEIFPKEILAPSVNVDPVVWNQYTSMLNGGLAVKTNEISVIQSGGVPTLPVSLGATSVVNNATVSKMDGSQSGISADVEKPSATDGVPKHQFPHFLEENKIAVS
| Sequence | E-score |
| --- | --- |
| AGATTAAC | 0.14 |
| CGCCGGCG | -0.289 |
| AACCGCCG | -0.27 |
| GTTGCGCA | -0.167 |
| CATCCACC | -0.095 |
| CTCCTCGC | -0.191 |
| CACGCACG | -0.189 |
| AACGGTAG | -0.0561 |
| AGCCTGTG | -0.169 |
| ATGGACTA | 0.208 |
| ACTCTCTA | 0.131 |
| GGGATACA | -0.0454 |
| GGAGGGGA | -0.185 |
| ATTGTACG | 0.17 |
| ATCGCTTG | -0.0635 |
| AGGACGAG | -0.164 |
| ACTGGCCT | -0.122 |
| ACCCAAGC | -0.16 |
| AATTAAGA | 0.263 |
| AGCTAATA | 0.154 |
| CGATCTCC | -0.234 |
| CTGTCGCA | -0.116 |
| GGGATTGA | -0.00848 |
| GTAATGCA | 0.134 |
| CATTAATG | 0.337 |

Set 3 — method: protein binding microarray; form: double-stranded DNA, one strand shown; sample: in vitro; concentration: not given; reference: not given; direction: higher = stronger binding
Target: Histone acetyltransferase KAT6A, both winged helices, GST fusion (KAT6A, Homo sapiens, UniProt Q92794, residues 1-181)
Notes: 8-mer, flanks averaged, mean of 2 arrays, mostly near background
Residues (chain): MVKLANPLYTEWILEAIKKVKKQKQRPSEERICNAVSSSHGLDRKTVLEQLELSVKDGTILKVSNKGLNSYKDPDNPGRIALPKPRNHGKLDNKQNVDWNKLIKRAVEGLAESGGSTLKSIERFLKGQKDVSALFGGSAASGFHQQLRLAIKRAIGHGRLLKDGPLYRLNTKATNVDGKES
| Sequence | E-score |
| --- | --- |
| TAGCTCGA | -0.0658 |
| CAACGGGG | 0.0231 |
| ACTTATAG | 0.00756 |
| GAATGCAC | -0.033 |
| CAGGTAAG | -0.164 |
| CCGGACAC | 0.139 |
| CACCCTGG | -0.284 |
| GTATGGAC | -0.079 |
| ACAAGGAC | -0.165 |
| ACGCCTGA | -0.0718 |
| AACAAAAG | 0.0934 |
| ATGAGATG | -0.157 |
| CAGTGTTC | -0.0164 |
| TAGCTCAA | -0.169 |
| CAAAAAGG | -0.186 |
| GTTGATAA | -0.0644 |
| CTCCTTGC | -0.192 |
| ATGTGCTG | -0.0985 |
| CACCGAAG | -0.00515 |
| CGCCGCGC | 0.419 |
| CTTAGAAA | 0.0188 |
| CAGCCCCC | -0.171 |
| CTGGGTTC | -0.0419 |
| ACTAATGC | 0.0348 |
| ATACCAAA | -0.00242 |

Set 4 — method: RNA Bind-n-Seq; form: RNA; sample: in vitro; concentration: not given; reference: input RNA pool; direction: higher = stronger binding
Target: RING finger protein unkempt homolog, zinc fingers 1-6, GST-SBP tag (UNK, Homo sapiens, UniProt Q9C0B0, residues 30-357)
Notes: RNA with constant flanks, human and mouse sites, ends assumed
Constant ends, left off below: GGGAGUUCUACAGUCCGACGAUC … CAACAGAGGAUUGAGCAUCA
Construct (chain): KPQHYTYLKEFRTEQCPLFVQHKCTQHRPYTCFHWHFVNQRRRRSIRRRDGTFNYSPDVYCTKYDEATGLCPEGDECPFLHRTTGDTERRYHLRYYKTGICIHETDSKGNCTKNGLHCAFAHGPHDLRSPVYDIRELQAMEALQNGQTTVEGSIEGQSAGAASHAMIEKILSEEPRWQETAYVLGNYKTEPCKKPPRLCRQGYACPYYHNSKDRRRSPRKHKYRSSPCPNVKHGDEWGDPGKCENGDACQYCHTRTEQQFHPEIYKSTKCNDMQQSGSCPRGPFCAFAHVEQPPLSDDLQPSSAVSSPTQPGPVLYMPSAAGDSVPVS
| Sequence | bound/input enrichment |
| --- | --- |
| UCCACCAAGAGCCUCUUCCUCGGCCAGAAGCUGAACCUUAUUCACAGUGAAAUCAGUAAUUUAGCCGGCUUUGAGGUGGAGGCCAUAAUCAAUCCUACCAAUGCUGACAUUGACCUUAAA | 0.124 ratio |
| AUGCUGAUCAAUGGCUAUGCGCUCAAUUGUGUGGUUGGAUCUCAGGGCAUGCCCAAGAGAAUAGUUAAUGCAAAAAUUGCUUGUCUUGACUUCAGCCUGCAGAAAACAAAAAUGAAGCUU | 0.103 ratio |
| CUUUGAAAGAUGAACAGUGUAGCCUGUCUGAAACUGUAGAGCCUUCAGGUGUCUUUAUUUAAUAGGUUGGGAGUGUGCAAGGGCUUCCUUAGCAGGGACAGAAGGCAAUCCUUUCAUGGU | 0.887 ratio |
| UCACCGAACUGCAGCACCCAGGCGUCGCUUUCUGCGGAGCUCUGCUUGCCAGUCAGCGAGUAGCACUCCUUGGAGAGCAAGUUGAACCCUUCGGCCUUGACCUCCGCCACCCGAUUGGGG | 0.0591 ratio |
| CCUCGACAAGGUCUUCCACUUGCCCACCACCACUUUCAUCGGGGGACAGGAAUCAGCACUUCCUCUGCGGGAGAUCAUCCGUCGGCUGGAGAUGGCCUACUGCCAGCAUAUUGGGGUGGA | 0.171 ratio |
| ACCUGUCCUGUGUGCUAAGAGCUAUGCAGCUUAGCUGAGGCGCCUAGAUUACUAGAUGUGCUGUAUCACGGGGAAUGAGGUGGGGGUGCUUAUUUUUUAAUGAACUAAUCAGAGCCUCUU | 0.307 ratio |
| UAUGUGGAGACAGAAUUGAUAUUUGCACUGGCUAAAACAAACCGCCUUGCAGAAUUAGAAGAGUUCAUCAAUGGGCCAAAUAAUGCUCAUAUUCAGCAAGUUGGUGACCGUUGUUAUGAU | 0.656 ratio |
| GCAUGCUUCCAGAAGACUGGCGCCUCGGUGGUUGCGAUUCGAAAGUACAUCAUUCAUAAGUACCCGUCUCUGGGUCUGGAGAGAAGGGGCUAUCUGCUCAAGCAAGCGCUGAAGAGAGAG | 0.382 ratio |
| ACUGGAUUCGGCAUCAUCCCUGUGGGAGGCACUUACCUCAUCCAGUCUGUUCCCGCUGAGCUCAAUAUGGAUCACACUGUUGUGCUGCAGCUGGCCGAGAAAAACGGGUAUGUGACUGUC | 0.137 ratio |
| AAAGCUUUAAAAAUGCCUCUGCCUUGCCUGCAAUACAUGCAAUGUGUGUUAACUGAGUCUGUUCUCAGAAUCUGUUGGUAGUUAUUUCUGUGUUUUCCCUUUUUUUAAAGAAAUGUAUUU | 0.464 ratio |
| GAGGAAAAAAAUCCAACUUCAAGCUCUUUGCACUAGUGAUGAUUAUGUGAUAUAUCAAUGUAAUAUUUAGCCAGUGGUCAUUAGAUGUUACUGUGCUUAAACACAUCUGAUACUCAUGCA | 0.317 ratio |

For quick reference, copied from above (set 4):
| Sequence | bound/input enrichment |
| --- | --- |
| AUGCUGAUCAAUGGCUAUGCGCUCAAUUGUGUGGUUGGAUCUCAGGGCAUGCCCAAGAGAAUAGUUAAUGCAAAAAUUGCUUGUCUUGACUUCAGCCUGCAGAAAACAAAAAUGAAGCUU | 0.103 ratio |
| CUUUGAAAGAUGAACAGUGUAGCCUGUCUGAAACUGUAGAGCCUUCAGGUGUCUUUAUUUAAUAGGUUGGGAGUGUGCAAGGGCUUCCUUAGCAGGGACAGAAGGCAAUCCUUUCAUGGU | 0.887 ratio |
| UCACCGAACUGCAGCACCCAGGCGUCGCUUUCUGCGGAGCUCUGCUUGCCAGUCAGCGAGUAGCACUCCUUGGAGAGCAAGUUGAACCCUUCGGCCUUGACCUCCGCCACCCGAUUGGGG | 0.0591 ratio |
| CCUCGACAAGGUCUUCCACUUGCCCACCACCACUUUCAUCGGGGGACAGGAAUCAGCACUUCCUCUGCGGGAGAUCAUCCGUCGGCUGGAGAUGGCCUACUGCCAGCAUAUUGGGGUGGA | 0.171 ratio |
| ACCUGUCCUGUGUGCUAAGAGCUAUGCAGCUUAGCUGAGGCGCCUAGAUUACUAGAUGUGCUGUAUCACGGGGAAUGAGGUGGGGGUGCUUAUUUUUUAAUGAACUAAUCAGAGCCUCUU | 0.307 ratio |
| UAUGUGGAGACAGAAUUGAUAUUUGCACUGGCUAAAACAAACCGCCUUGCAGAAUUAGAAGAGUUCAUCAAUGGGCCAAAUAAUGCUCAUAUUCAGCAAGUUGGUGACCGUUGUUAUGAU | 0.656 ratio |
| GCAUGCUUCCAGAAGACUGGCGCCUCGGUGGUUGCGAUUCGAAAGUACAUCAUUCAUAAGUACCCGUCUCUGGGUCUGGAGAGAAGGGGCUAUCUGCUCAAGCAAGCGCUGAAGAGAGAG | 0.382 ratio |
